{"data": "Published values collected from several papers", "CHRM1": "Muscarinic acetylcholine receptor M1 (CHRM1, Homo sapiens, UniProt P11229)", "CHRM4": "Muscarinic acetylcholine receptor M4 (CHRM4, Homo sapiens, UniProt P08173)", "SCN10A": "Sodium channel protein type 10 subunit alpha (SCN10A, Homo sapiens, UniProt Q9Y5Y9)", "T1": "DNA G4, G-quadruplex (Homo sapiens); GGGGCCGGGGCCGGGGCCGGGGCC", "B1": "side-chain stapled; chain VRTKQEARKSTGG (also: sidechain bridge or staple (positions not given here))", "note": "Lines come from different studies, so protocols differ. “And” joins repeats or separate records; there may be more than shown. ± marks the error that the study gave. No end group written: not given here.", "UniProt P08173, sequence (whole entry, looked up)": "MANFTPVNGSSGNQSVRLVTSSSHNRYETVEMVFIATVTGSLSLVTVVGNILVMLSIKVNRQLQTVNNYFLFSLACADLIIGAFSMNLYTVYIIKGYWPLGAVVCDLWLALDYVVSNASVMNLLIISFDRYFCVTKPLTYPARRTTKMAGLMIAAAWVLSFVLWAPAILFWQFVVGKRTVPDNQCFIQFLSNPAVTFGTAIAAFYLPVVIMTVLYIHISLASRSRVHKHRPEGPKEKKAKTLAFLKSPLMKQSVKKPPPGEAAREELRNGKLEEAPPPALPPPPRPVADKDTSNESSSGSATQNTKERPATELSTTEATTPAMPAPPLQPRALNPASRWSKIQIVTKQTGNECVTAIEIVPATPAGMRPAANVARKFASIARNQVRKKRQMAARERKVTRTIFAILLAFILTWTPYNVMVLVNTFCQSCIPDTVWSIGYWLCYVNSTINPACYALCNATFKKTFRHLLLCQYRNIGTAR", "UniProt Q9Y5Y9, sequence (whole entry, looked up)": "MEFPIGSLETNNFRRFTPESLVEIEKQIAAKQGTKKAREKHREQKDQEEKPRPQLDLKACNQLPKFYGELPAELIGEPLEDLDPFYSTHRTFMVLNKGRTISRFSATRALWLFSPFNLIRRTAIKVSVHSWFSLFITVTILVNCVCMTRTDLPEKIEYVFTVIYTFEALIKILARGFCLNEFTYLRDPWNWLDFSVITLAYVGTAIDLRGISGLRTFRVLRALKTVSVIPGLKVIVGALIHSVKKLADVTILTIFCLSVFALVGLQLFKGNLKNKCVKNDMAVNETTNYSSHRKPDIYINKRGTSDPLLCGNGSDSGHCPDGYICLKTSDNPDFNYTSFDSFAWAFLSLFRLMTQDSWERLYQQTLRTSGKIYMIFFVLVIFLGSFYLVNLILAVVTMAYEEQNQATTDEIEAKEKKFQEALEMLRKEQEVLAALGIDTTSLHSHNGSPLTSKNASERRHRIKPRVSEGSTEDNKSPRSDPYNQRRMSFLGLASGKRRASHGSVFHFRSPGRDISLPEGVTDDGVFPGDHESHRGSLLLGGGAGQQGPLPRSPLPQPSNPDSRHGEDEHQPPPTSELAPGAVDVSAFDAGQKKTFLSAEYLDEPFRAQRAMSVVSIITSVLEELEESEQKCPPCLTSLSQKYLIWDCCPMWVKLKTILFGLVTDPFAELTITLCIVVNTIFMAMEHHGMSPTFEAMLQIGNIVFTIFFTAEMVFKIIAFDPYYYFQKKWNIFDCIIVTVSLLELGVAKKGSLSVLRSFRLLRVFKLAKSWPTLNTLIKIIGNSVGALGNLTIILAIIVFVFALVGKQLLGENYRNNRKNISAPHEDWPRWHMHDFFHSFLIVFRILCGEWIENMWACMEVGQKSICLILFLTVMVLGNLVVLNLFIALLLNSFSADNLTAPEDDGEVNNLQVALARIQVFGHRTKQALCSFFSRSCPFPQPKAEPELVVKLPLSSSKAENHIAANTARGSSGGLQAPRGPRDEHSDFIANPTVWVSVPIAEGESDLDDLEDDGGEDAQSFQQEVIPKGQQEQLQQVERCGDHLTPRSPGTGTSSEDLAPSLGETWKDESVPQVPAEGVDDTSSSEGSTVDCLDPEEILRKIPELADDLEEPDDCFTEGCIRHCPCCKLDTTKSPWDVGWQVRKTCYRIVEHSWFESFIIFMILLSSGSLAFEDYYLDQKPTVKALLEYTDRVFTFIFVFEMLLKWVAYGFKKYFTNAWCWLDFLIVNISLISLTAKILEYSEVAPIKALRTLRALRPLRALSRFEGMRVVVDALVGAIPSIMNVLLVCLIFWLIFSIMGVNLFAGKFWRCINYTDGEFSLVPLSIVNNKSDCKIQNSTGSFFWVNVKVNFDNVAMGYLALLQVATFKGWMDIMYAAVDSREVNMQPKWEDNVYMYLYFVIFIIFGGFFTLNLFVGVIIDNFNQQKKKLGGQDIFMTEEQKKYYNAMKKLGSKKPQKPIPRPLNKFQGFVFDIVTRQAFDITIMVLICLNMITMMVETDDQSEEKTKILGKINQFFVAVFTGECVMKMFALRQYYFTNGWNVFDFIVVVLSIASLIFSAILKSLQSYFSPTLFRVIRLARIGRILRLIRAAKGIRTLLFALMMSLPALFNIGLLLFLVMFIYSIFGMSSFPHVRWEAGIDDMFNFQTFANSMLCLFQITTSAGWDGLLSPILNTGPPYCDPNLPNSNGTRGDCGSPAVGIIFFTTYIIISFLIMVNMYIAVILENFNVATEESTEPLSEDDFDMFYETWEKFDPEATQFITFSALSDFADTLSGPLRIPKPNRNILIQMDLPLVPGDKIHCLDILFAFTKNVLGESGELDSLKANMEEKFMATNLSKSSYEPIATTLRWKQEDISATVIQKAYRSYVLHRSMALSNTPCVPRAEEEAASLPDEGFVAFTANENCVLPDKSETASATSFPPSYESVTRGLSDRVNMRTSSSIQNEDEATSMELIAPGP", "UniProt P11229, sequence (whole entry, looked up)": "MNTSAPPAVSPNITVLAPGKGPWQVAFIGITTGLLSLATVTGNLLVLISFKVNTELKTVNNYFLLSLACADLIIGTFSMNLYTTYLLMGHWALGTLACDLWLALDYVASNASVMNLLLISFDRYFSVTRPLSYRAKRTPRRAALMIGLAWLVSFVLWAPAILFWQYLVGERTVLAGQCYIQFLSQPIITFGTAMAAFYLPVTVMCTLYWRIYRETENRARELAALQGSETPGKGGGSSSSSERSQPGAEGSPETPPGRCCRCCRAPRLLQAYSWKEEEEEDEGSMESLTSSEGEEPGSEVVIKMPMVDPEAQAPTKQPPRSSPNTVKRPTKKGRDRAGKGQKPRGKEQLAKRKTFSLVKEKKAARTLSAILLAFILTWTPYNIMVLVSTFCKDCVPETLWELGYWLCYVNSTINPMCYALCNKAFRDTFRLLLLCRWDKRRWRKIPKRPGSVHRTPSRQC", "UniProt P14780, sequence (whole entry, looked up)": "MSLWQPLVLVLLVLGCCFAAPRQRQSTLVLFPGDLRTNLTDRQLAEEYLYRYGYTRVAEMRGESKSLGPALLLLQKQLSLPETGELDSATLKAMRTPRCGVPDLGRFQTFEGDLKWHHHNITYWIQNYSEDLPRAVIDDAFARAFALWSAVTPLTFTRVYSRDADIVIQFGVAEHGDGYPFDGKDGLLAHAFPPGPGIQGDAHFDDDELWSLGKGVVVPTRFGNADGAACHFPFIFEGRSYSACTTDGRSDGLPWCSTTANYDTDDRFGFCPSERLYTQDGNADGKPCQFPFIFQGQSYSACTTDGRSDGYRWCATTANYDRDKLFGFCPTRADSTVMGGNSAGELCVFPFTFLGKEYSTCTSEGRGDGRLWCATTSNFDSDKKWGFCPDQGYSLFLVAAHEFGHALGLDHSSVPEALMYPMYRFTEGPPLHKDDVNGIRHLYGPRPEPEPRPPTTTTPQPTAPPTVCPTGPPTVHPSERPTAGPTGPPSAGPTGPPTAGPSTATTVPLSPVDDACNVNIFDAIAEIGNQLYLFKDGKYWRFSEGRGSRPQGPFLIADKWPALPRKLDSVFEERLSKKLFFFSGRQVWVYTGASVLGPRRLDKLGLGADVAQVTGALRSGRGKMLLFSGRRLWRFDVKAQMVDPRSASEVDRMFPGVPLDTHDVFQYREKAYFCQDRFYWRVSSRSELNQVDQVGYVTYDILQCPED", "UniProt P11607, sequence (whole entry, looked up)": "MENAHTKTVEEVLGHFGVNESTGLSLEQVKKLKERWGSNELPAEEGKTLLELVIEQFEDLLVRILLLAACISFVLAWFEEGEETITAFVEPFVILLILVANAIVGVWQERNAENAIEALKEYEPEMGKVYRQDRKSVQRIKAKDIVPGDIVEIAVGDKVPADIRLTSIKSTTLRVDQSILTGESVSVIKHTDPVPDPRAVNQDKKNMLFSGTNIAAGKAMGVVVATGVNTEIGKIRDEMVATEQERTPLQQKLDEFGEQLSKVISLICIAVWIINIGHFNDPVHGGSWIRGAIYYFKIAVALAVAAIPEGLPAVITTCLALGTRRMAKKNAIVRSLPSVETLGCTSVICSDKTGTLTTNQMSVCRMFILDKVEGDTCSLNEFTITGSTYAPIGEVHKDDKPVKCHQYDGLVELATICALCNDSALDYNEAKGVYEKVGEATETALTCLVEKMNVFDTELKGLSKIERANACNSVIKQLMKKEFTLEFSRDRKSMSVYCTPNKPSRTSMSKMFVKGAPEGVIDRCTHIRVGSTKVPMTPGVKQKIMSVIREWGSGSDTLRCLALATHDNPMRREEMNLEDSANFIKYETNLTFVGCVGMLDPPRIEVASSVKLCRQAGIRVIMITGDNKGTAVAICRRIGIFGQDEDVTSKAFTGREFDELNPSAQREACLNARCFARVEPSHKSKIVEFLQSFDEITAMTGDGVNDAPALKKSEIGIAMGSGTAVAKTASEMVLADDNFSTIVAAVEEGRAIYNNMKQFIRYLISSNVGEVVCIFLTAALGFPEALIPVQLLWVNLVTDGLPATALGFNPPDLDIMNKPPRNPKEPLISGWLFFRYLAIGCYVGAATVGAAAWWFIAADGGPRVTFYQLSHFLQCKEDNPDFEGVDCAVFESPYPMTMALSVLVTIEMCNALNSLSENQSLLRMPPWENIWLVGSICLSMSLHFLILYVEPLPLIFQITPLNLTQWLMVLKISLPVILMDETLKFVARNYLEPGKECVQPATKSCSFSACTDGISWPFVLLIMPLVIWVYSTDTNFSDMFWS", "UniProt P12369, sequence (whole entry, unmodified, looked up)": "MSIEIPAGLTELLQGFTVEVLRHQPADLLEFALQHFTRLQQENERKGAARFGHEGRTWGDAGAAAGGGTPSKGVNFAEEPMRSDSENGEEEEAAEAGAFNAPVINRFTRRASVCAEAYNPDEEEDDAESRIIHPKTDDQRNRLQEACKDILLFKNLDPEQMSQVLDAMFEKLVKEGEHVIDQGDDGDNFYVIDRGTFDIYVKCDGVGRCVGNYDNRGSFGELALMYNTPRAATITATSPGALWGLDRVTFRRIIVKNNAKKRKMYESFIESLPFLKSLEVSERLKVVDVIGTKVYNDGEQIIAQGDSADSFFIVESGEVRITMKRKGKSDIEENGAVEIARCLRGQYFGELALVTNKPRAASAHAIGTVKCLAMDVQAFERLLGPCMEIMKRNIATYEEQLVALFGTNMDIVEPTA"}
{"Molecule": "CCN(CC)C(=O)c1ccc(COc2ccccc2-c2cc(=O)n(C3CCCCC3O)cn2)cc1 (stereo not shown)", "target": "CHRM1", "assay": "allosteric agonist, IP1 accumulation", "system": "CHO-M1 cells", "setting": "1 µM, unit not given", "scale": "relative to: maximum ACh response", "endpoint": "change in baseline activity", "result": "9.2 ± 3"}
{"Molecule": "CC(C)C[C@H](NC(=O)[C@@H]1CSSC[C@H](NC(=O)[C@H](Cc2c[nH]cn2)NC(=O)[C@H](Cc2c[nH]c3ccccc23)NC(=O)[C@H](CCCCNC(=O)CNC(=O)CCC(C(=O)O)N2CCN(CC(=O)O)CCN(CC(=O)O)CC2)NC(=O)CCC(C(=O)O)N2CCN(CC(=O)O)CCN(CC(=O)O)CC2)C(=O)N[C@@H]([C@@H](C)O)C(=O)N[C@@H]([C@@H](C)O)C(=O)N[C@@H](CCCCNC(=O)CNC(=O)CCC(C(=O)O)N2CCN(CC(=O)O)CCN(CC(=O)O)CC2)C(=O)N[C@@H](Cc2ccccc2)C(=O)N2CCC[C@H]2C(=O)N[C@@H](Cc2c[nH]cn2)C(=O)N[C@@H](Cc2c[nH]cn2)C(=O)N[C@@H](Cc2ccc(O)cc2)C(=O)N1)C(=O)N[C@@H](Cc1ccc(O)cc1)C(=O)N[C@@H](Cc1ccc(-c2ccccc2)cc1)C(N)=O (stereo partly shown) [gallium-68 labelled]", "target": "Col1a1/Col1a2 (Mus musculus, UniProt P11087+Q01149)", "assay": "ex vivo gamma counting", "system": "mouse bleomycin pulmonary fibrosis, lung", "setting": "dose not given, 150 min post injection, bleomycin 2.5 U/kg, day 14", "endpoint": "lung uptake", "result": "0.066 ± 0.008 %ID/lung"}
{"Molecule": "CC1(C)C=Cc2c(ccc3c2OC[C@@H](c2ccc(O)cc2O)C3)O1", "target": "Gabra1/Gabrb2, with gamma2 subunit (Rattus norvegicus, UniProt P62813+P63138, N289M)", "assay": "ion current, agonist, two-electrode voltage clamp", "system": "Xenopus laevis oocytes expressing α1β2(N265M)γ2", "setting": "30 µM, unit not given, added: no GABA", "scale": "relative to: GABA current", "endpoint": "direct activation", "result": 0}
{"Molecule": "CCCN(Cc1ccccc1)C(=O)c1cc(C)c(C)s1", "target": "ATP2A2 (Sus scrofa, UniProt P11607)", "assay": "enzyme activity, NADH-coupled", "system": "porcine cardiac SR vesicles", "setting": "up to 50 µM", "endpoint": "Ca2+-ATPase activity", "result": "inactive"}
{"Molecule": "NCCCCCCNc1nc2c(N)ncnc2n1[C@@H]1O[C@@H]2COP(=O)(O)O[C@H]2[C@H]1O", "target": "cAMP-dependent protein kinase type II-beta regulatory subunit, holoenzyme with catalytic subunit (Prkar2b, Rattus norvegicus, UniProt P12369, S112A)", "assay": "PKA holoenzyme activation, activator, fluorescence anisotropy", "scale": "relative to: RIIβ over RIα, higher = RIIβ-selective", "endpoint": "selectivity ratio", "result": 0.6}
{"Molecule": "COc1cc2nc(N(C)CCCNC(=O)C3CCCO3)nc(N)c2cc1OC (stereo not shown)", "target": "Sodium channel protein type 5 subunit alpha (SCN5A, Homo sapiens, UniProt Q14524)", "assay": "sodium current, inhibitor, IonWorks Quattro", "endpoint": "Hill coefficient", "result": 0.71}
{"Molecule": "COc1ccc(C)c2sc(NS(=O)(=O)c3ccc(C(F)(F)F)cc3)nc12", "target": "CHRM4", "assay": "calcium mobilization, positive allosteric modulator", "system": "CHO expressing hM4 and Gqi5", "setting": "concentration not given, added: acetylcholine EC20", "endpoint": "activity", "result": "inactive"}
{"Molecule": "ARRHSMGWAYKKKK", "target": "Serine/threonine-protein kinase PLK1 (PLK1, Homo sapiens, UniProt P53350, T210D)", "assay": "substrate", "system": "peptide", "setting": "Km of kinase, 1 h, 30 °C", "scale": "relative to: optimal peptide", "endpoint": "phosphorylation", "result": "≤ 1%"}
{"Molecule": "B1", "target": "Histone-lysine N-methyltransferase SETD7 (SETD7, Homo sapiens, UniProt Q8WTS6)", "assay": "peptide methylation, substrate, MALDI-TOF MS", "setting": "10 µM, 3 h, pH 8.0, 37 °C, enzyme 500 nM, added: SAM 30 µM", "endpoint": "methylation conversion", "result": "≥ 90%"}
{"Molecule": "C=CC(=O)NCCCC[C@H](NC(=O)OCc1ccccc1)C(N)=O", "target": "Protein-glutamine gamma-glutamyltransferase (TGM2, Homo sapiens, UniProt P21980)", "setting": "pH 6.5", "endpoint": "kinact", "result": "0.018 ± 0.00767 s⁻¹"}
{"Molecule": "CCN(c1nc(N)c(C(=O)NC(=N)N)nc1Cl)C(C)C", "target": "unc-8 (Caenorhabditis elegans, UniProt Q21974, G387E)", "assay": "ion current, two-electrode voltage clamp", "system": "Xenopus oocytes coexpressing MEC-2", "setting": "30 µM, -85 mV", "scale": "relative to: uninjected oocytes, positive = inhibition", "endpoint": "current change", "result": "0.61 µA"}
{"Molecule": "CN(c1ccccc1)S(=O)(=O)C1CC2OC1C(c1ccc(O)cc1)=C2c1ccc(O)cc1 (stereo not shown)", "target": "Estrogen receptor beta (ESR2, Homo sapiens, UniProt Q92731)", "assay": "reporter gene, antagonist", "system": "HepG2", "setting": "added: estradiol 10 nM", "scale": "relative to: E2 response, negative is inverse agonism", "endpoint": "efficacy", "result": "-25 ± 3%"}
{"Molecule": "CCCCCCCCO", "target": "Major urinary protein 1 (Mup1, Mus musculus, UniProt P11588)", "assay": "isothermal titration calorimetry", "setting": "concentration not given, pH 7.4, 278-308 K", "endpoint": "binding heat capacity change", "result": "-646 ± 27 J/(K·mol)"}
{"Molecule": "COc1ccc(COc2ccccc2-c2cc(=O)n(C3CCCCC3O)cn2)cc1 (stereo not shown)", "target": "CHRM1", "assay": "allosteric agonist, IP1 accumulation", "system": "CHO-M1 cells", "setting": "10 µM, unit not given", "scale": "relative to: maximum ACh response", "endpoint": "change in baseline activity", "result": "49.6 ± 4.2"}
{"Molecule": "NC(=O)CN[C@H]1CCCNC1", "target": "Papain (Carica papaya, UniProt P00784)", "assay": "inhibitor", "scale": "relative to: Ki papain over Ki IdeS", "endpoint": "selectivity ratio", "result": "≥ 16 fold"}
{"Molecule": "CCCNC(C)C(=O)Nc1c(C)csc1C(=O)OCC(C)C (stereo not shown)", "target": "SCN10A", "assay": "cell membrane chromatography", "scale": "higher = stronger binding", "endpoint": "capacity factor k′", "result": 0}
{"Molecule": "COc1cc2c(cc1OC)-c1c/c(=N\\c3c(C)cc(C)cc3C)n(C)c(=O)n1CC2", "target": "Dual specificity calcium/calmodulin-dependent 3',5'-cyclic nucleotide phosphodiesterase 1A (PDE1A, Homo sapiens, UniProt P54750)", "assay": "cAMP hydrolysis, inhibitor", "setting": "up to 50 µM", "endpoint": "IC50", "result": "inactive"}
{"Molecule": "CCc1c(C)n(Cc2ccc(-c3ccccc3C(=O)O)cc2)c2ccc(Br)cc12", "target": "Peroxisome proliferator-activated receptor gamma (PPARG, Homo sapiens, UniProt P37231)", "system": "COS-7", "setting": "10 µM, 39 h", "endpoint": "Emax", "result": "33.8%"}
{"Molecule": "COc1cc(F)ccc1-c1nc(Nc2nc3ccccc3o2)ncc1C#N", "target": "Metabotropic glutamate receptor 5 (Grm5, Rattus norvegicus, UniProt P31424)", "assay": "calcium mobilization, negative allosteric modulator", "setting": "added: glutamate EC80", "scale": "relative to: maximal glutamate response", "endpoint": "maximal response", "result": "1.5 ± 0.4%"}
{"Molecule": "Cn1cc(-c2ccc(COc3ccccc3-c3cc(=O)n(C4CCCCC4O)cn3)cn2)cn1 (stereo not shown)", "target": "CHRM1", "assay": "positive allosteric modulator, IP1 accumulation", "system": "CHO-M1 cells", "setting": "10 µM, 60 min, 37 °C, added: ACh", "scale": "relative to: ACh alone, higher = stronger potentiation", "endpoint": "ΔpEC50 of ACh", "result": "1.65 ± 0.43 log units"}
{"Molecule": "COc1ccc(C)c2sc(NC(=O)N3CCCCC3)nc12", "target": "CHRM4", "assay": "calcium mobilization, positive allosteric modulator", "system": "CHO expressing hM4 and Gqi5", "setting": "concentration not given, added: acetylcholine EC20", "endpoint": "activity", "result": "inactive"}
{"Molecule": "CCCNC(C)C(=O)Nc1c(C)csc1C(=O)OC (stereo not shown)", "target": "SCN10A", "assay": "cell membrane chromatography", "scale": "higher = stronger binding", "endpoint": "capacity factor k′", "result": 51}
{"Molecule": "COc1ccc2nc(NC(=O)c3ccncc3)sc2n1", "target": "CHRM4", "assay": "calcium mobilization, positive allosteric modulator", "system": "CHO expressing hM4 and Gqi5", "setting": "concentration not given, added: acetylcholine EC20", "endpoint": "activity", "result": "inactive"}
{"Molecule": "Cn1cc(-c2ccc(COc3ccccc3-c3cc(=O)n(C4CCCCC4O)cn3)cc2)cn1 (stereo not shown)", "target": "CHRM1", "assay": "allosteric agonist, IP1 accumulation", "system": "CHO-M1 cells", "setting": "10 µM, unit not given", "scale": "relative to: maximum ACh response", "endpoint": "change in baseline activity", "result": "85.3 ± 2.4"}
{"Molecule": "C[C@H](N)C(=O)N[C@@H](CCCNC(=N)N)C(=O)N[C@H](C(=O)N[C@@H](CCCCN)C(=O)N[C@@H](CCC(N)=O)C(=O)N[C@H](C(=O)N[C@@H](C)C(=O)N[C@@H](CCCNC(=N)N)C(=O)N[C@@H](CCCCN)C(=O)N[C@@H](COP(=O)(O)O)C(=O)O)[C@@H](C)O)[C@@H](C)O", "target": "Autoimmune regulator, PHD1 domain (AIRE, Homo sapiens, UniProt O43918)", "assay": "ITC", "setting": "concentration not given, pH 7.2, 23 °C", "endpoint": "binding enthalpy ΔH", "result": "-9.6 ± 0.1 kcal/mol"}
{"Molecule": "CQLGPYELWELSH", "target": "rituximab", "assay": "QCM frequency change, QCM", "system": "peptide", "setting": "concentration not given, added: rituximab 1 µg/µL", "endpoint": "binding", "result": "increased"}
{"Molecule": "COc1c2c(c(O)c3c(=O)c4cccc(O[C@@H]5OC(C(=O)O)=C[C@H](O)[C@H]5O)c4oc13)-c1c(cc(CC(C)=O)c(C(=O)O)c1O)CC2", "target": "T1, DNA G4, G-quadruplex (Homo sapiens)", "assay": "fluorescence intensity titration", "setting": "pH 6.8, KCl 8 mM, one site with Hill slope", "endpoint": "Kd", "result": "3000 µM"}
{"Molecule": "COC(=O)c1scc(C)c1NC(=O)C(C)N1CCN(CCO)CC1 (stereo not shown)", "target": "SCN10A", "assay": "cell membrane chromatography", "scale": "higher = stronger binding", "endpoint": "capacity factor k′", "result": 41}
{"Molecule": "CC(=O)N[C@@H](CC(N)=O)C(=O)NCC(=O)N[C@@H](CCCNC(=N)N)C(=O)NCC(=O)N[C@@H](CC(=O)O)C(=O)N[C@@H](CO)C(=O)N[C@@H](CC(C)C)C(=O)N[C@@H](C)C(=O)N[C@@H](Cc1ccc(O)cc1)C(=O)NCC(=O)N[C@@H](CC(C)C)C(=O)N[C@@H](CCCNC(=N)N)C(=O)N[C@@H](CO)C(=O)N[C@@H](CCCCN)C(=O)N[C@@H](CO)C(=O)N[C@@H](CCCNC(=N)N)C(=O)N[C@@H](CO)C(=O)N[C@@H](Cc1ccccc1)C(=O)N[C@@H](CCC(N)=O)C(=O)N[C@H](C(N)=O)C(C)C", "target": "Matrix metalloproteinase-9 (MMP9, Homo sapiens, UniProt P14780)", "assay": "substrate, LC-MS/MS", "setting": "24 h, 37 °C, added: peptide to enzyme 20:1 w/w", "endpoint": "cleavage efficiency", "result": "99% and ~99%"}
{"Molecule": "Cc1ccc(COc2ccccc2-c2cc(=O)n(C3CCCCC3O)cn2)cn1 (stereo not shown)", "target": "CHRM1", "assay": "positive allosteric modulator, IP1 accumulation", "system": "CHO-M1 cells", "setting": "10 µM, 60 min, 37 °C, added: ACh", "scale": "relative to: ACh alone, higher = stronger potentiation", "endpoint": "ΔpEC50 of ACh", "result": "1.35 ± 0.16 log units"}
{"Molecule": "C=CC(=O)N1CCC(Cc2cccc(C(=O)N3CCN(c4nc(-c5cnc(N)nc5C(F)F)nc(N5CCOCC5)n4)CC3)c2)CC1", "target": "Phosphatidylinositol 4,5-bisphosphate 3-kinase catalytic subunit alpha isoform (PIK3CA, Homo sapiens, UniProt P42336)", "assay": "covalent inhibitor", "endpoint": "kinact/KI", "result": "< 100000 M⁻¹ s⁻¹"}
{"Molecule": "COC(=O)c1scc(C)c1NC(=O)C(C)N1CCOCC1 (stereo not shown)", "target": "SCN10A", "assay": "cell membrane chromatography", "scale": "higher = stronger binding", "endpoint": "capacity factor k′", "result": 11}
{"Molecule": "Oc1ccc(C2CNCCc3c2cc(O)c(O)c3Cl)cc1 (stereo not shown)", "target": "Lysine-specific demethylase 4E (KDM4E, Homo sapiens, UniProt B2RXH2)", "assay": "inhibitor, FDH-coupled", "scale": "relative to: 20 µM over 2.5 µM ferrous ammonium sulfate", "endpoint": "IC50 ratio", "result": 1.3}
{"Molecule": "CCc1nc2c([nH]1)c(=O)n(C)c(=O)n2C", "target": "Progesterone receptor (PGR, Homo sapiens, UniProt P06401)", "assay": "reporter gene, antagonist, MMTV-luciferase", "system": "T47D/A1-2", "setting": "10 µM, 24 h, added: 5 nM progesterone", "scale": "relative to: maximal activity", "endpoint": "remaining activity", "result": "76%"}
